Assay results from different studies.
Each numbered part is a random draw from the data of one study; scales do not carry over between parts.
Sequence of UniProt Q15831 (whole entry, looked up): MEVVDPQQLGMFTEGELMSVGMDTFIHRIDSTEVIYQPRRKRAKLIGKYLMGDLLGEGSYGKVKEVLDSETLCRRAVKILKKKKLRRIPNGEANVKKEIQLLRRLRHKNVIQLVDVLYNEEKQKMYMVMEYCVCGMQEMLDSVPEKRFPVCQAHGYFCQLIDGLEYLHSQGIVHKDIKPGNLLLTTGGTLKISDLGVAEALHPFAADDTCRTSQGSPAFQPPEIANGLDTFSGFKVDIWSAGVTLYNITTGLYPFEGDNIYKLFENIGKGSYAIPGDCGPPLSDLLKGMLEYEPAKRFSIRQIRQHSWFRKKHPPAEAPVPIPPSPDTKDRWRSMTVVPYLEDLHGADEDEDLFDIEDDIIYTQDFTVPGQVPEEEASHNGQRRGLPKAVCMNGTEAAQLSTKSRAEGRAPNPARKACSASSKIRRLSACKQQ

Series 1
Target: Eukaryotic initiation factor 4A-I (EIF4A1, Homo sapiens, UniProt P60842, residues 1-406, full length assumed)
Sequence of UniProt P60842 (whole entry, looked up): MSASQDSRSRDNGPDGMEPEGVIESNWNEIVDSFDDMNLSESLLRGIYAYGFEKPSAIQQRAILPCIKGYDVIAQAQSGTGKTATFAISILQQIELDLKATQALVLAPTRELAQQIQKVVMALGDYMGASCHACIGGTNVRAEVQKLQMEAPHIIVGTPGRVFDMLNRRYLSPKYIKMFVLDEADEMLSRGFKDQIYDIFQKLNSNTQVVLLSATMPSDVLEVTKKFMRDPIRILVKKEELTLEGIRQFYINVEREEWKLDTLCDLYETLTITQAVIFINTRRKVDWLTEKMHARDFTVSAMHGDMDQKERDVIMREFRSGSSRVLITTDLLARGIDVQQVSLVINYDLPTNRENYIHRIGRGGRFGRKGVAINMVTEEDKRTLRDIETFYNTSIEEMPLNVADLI
Method: RNA Bind-n-Seq
Form: RNA
Medium: in vitro
Tested at: 90 pmol
Notes: 4-mer, random 30-nt RNA, single round
Together with: 3 µM DMDA-PatA, 2 mM ADP, 2 mM phosphate
Reference: input library
Direction: higher = stronger binding
| Oligonucleotide | 4-mer enrichment [fold] |
| --- | --- |
| CACA | 0.725 |
| AGCU | 0.577 |
| CAGC | 0.916 |
| CUGG | 0.714 |
| AGUU | 1.13 |
| UACU | 0.619 |
| AGUA | 1.1 |
| GGAG | 1.54 |

Series 2
Target: Interferon regulatory factor 3, full length, phosphomimetic (IRF3, Homo sapiens, UniProt Q14653, residues 1-427, S386D/S396D/S398D/S402D/T404D/S405D)
Method: protein-binding microarray
Form: double-stranded DNA, one strand shown
Medium: in vitro
Tested at: 2540 nM top
Notes: 60-bp whole probe
Together with: salmon DNA 0.4 mg/ml
Reference: random background probes
Direction: higher = stronger binding
Constant ends, left off below: GCCTAGCAC … GTCTTGATTCGCTTGACGCTGCTG
Residues (chain): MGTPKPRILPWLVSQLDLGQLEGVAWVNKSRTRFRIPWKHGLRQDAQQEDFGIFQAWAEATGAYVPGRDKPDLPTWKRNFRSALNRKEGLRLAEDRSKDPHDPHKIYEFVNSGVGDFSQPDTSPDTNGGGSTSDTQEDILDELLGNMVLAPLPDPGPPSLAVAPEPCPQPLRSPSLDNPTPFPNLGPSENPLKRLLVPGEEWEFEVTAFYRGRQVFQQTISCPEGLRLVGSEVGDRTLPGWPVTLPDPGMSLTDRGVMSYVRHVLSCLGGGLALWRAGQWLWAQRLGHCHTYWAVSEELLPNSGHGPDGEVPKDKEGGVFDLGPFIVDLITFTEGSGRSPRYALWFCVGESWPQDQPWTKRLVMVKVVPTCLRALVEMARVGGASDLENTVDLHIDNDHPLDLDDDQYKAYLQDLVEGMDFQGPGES
| Oligonucleotide | fitted relative affinity |
| --- | --- |
| GGGCATTTGGTTAGCGTATAGTGCTAG | -0.788 z-score |
| TTACAACTGGGGACTGGATTAGTGCTA | -0.574 z-score |
| TTAGAACTGGGGTACCGATTAGTGCTA | 0.493 z-score |
| TTCCAACTCTGTTTTCGCTTGTGCTAG | 1.26 z-score |
| TCACCTTTTTTGTTGTTACTGTGCTAG | 2.92 z-score |
| CTTGTTCTTAGCTTGGGTCTGTGCTAG | 0.309 z-score |
| GACTATTTCAGACTGGAGACGTGCTAG | 0.74 z-score |
| TCTCTTTTTGCTTTCTTTTAGTGCTAG | 2.18 z-score |

Series 3
Target: RING finger protein unkempt homolog, zinc fingers 1-6, GST-SBP tag (UNK, Homo sapiens, UniProt Q9C0B0, residues 30-357)
Method: RNA Bind-n-Seq
Form: RNA
Medium: in vitro
Tested at: not given
Notes: RNA with constant flanks, human and mouse sites, ends assumed
Reference: input RNA pool
Direction: higher = stronger binding
Constant ends, left off below: GGGAGUUCUACAGUCCGACGAUC … CAACAGAGGAUUGAGCAUCA
Residues (chain): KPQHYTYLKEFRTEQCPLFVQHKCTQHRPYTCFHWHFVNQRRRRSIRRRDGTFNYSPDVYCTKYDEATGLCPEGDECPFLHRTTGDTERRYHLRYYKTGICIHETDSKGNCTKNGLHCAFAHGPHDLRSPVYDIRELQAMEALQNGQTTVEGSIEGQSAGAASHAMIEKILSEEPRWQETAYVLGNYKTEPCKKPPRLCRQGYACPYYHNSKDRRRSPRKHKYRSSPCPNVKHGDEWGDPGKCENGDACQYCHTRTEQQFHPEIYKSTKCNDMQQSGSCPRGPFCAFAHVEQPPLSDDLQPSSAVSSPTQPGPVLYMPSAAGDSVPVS
| Oligonucleotide | bound/input enrichment [ratio] |
| --- | --- |
| GCAGUGCAGCUGACUGCUCUGGUCAUGAGCAACCAGGCCAUGCAGCAGAGGCUCUUGGCCAUGCUAACGACCUAUGUCACCAAGGAGCUGCAGGCUGAGAUCCGCUAUGAGGACUAGGCC | 0.0326 |
| AGUUCCAGAGCUCCUUCAUUGGUUUUAAUAAACUCUAAGGUAGUUAAAGAUGAAGGGCCAGCAUAUAUUUAUAUGAUAAGUUUAGAUUAUGAGCGUGAGUACCAAUUAAGUUUGAAUGAA | 1.51 |
| CCCCUCAAGCACCAACACAUUUUCUGGUGAUACCCAAGAAACAUAUAUCCCAGAUUUCUGUGGCAGAAGAUGAUGAUGAAAGUCUUCUUGGACACUUAAUGAUUGUUGGCAAGAAAUGUG | 0.238 |
| GAGGCCAUUGAGCUUCCAAUAGAUCCCAAGUUGAACAAAAGACGGGGUUUUGUUUUUAUUACAUUUAAAGAGGAAGAUCCUGUGAAGAAAGUUCUGGAGAAGAAAUUUCAUACUGUCAGU | 0.357 |
| AAGGAAACACAGAUGGUGAAGAUUAAAGAGGAACCCAUGGAGGUUGACAUCCAGGACUCCCAUGUCUCGAUAUCACCCAGCCGGAAUGUUGGCUACAGCACUUUAAUCGGGCGAGAGAAA | 0.131 |
| CACGCAGCAGUUGUGGUCAAUAUUGUGGUAGUCGCUAAUUGUACUGGUUUAAGUGUGCAUUAGUAGUGUCUCCCCAGCUAGAUUGUAAGCUCCUGGAGACAGGGACCACCUCCACCAAAA | 0.344 |
| CCGUUUGACAACACUACCUACAAGAACCUGCAGCAUCAUGACUACAGCACGUACACCUUCUUAGACCUCAACCUCGAACUCUCAAAAUUCAGGAUGCCUCAGCCCUCCUCAGGCCGGGAG | 0.405 |
| UAGUUUAUUCAAUUACAGCUCAGUCUACGUUUAAUGAUUUACAAGACUUGAGAGAACAGAUUUUACGGGUUAAAGACACAGAAGAUGUUCCAAUGAUUUUGGUUGGCAAUAAAUGUGACU | 6.45 |

Mixed results
| SMILES | target | test | conditions | scale | endpoint | value |
| --- | --- | --- | --- | --- | --- | --- |
| COc1cc(Nc2c(C#N)cnc3cc(OCCCN4CCN(C)CC4)c(OC)cc23)c(Cl)cc1Cl | Serine/threonine-protein kinase STK11 (STK11, Homo sapiens, UniProt Q15831) | enzyme activity, inhibitor | 0.5 µM | reference: control | remaining activity | 98.1% |

A few entries again (series 1):
| Oligonucleotide | 4-mer enrichment [fold] |
| --- | --- |
| CAGC | 0.916 |
| UACU | 0.619 |
